Results pooled from the literature.
Parts stem from different laboratories: compare values within a part only. Positions count from the first letter of the parent shown.

Series 1
Target: CCNF, cyclin fold, Cln2 fusion (human)
Method: yeast growth competition, sequencing
Sample: yeast
Setting: strong parent motif
Relative to: not given
Reading: higher = stronger binding
Measurement: normalised enrichment score
Starting sequence: RBL1 docking peptide (human); GSAKRRLFGEDPP
K4D: 0.162
G9T: 7.04
G1Q: 8.76
R6G: 0.407

Series 2
Target: Prothrombin, mature alpha-thrombin (F2, Homo sapiens, UniProt P00734)
Method: aptamer microarray, sandwich
Form: DNA with 2'F-ANA
Sample: in vitro
Concentration: 200 nM
Setting: whole 15-mer aptamer, many near background
Together with: Cy3 exosite-II aptamer, 400 nM
Reading: higher = stronger binding
Measurement: mean fluorescence intensity
GGTTGGTGTGGTTGG (2'F-ANA at 1 3 5 6 7 10 11 12 13 15): 50.9 a.u.
GGTTGGTGTGGTTGG (2'F-ANA at 2 3 4 5 10 12 14): 65.3 a.u.
GGTTGGTGTGGTTGG (2'F-ANA at 1 2 4 7 8 9 11 12 13 15): 166 a.u.

Series 3
Target: RNA binding protein fox-1 homolog 2, RRM domain, GST-SBP tag (RBFOX2, Homo sapiens, UniProt O43251-10, residues 100-194)
Method: RNA Bind-n-Seq
Form: RNA
Sample: in vitro
Concentration: 365 nM
Setting: natural RNA segment, single round, ends assumed
Relative to: no-protein control
Reading: higher = stronger binding
Measurement: RBNS enrichment (R)
Shared flanks, not repeated: GGGAGUUCUACAGUCCGACGAUC … UGGAAUUCUCGGGUGCCAA
Target sequence (chain): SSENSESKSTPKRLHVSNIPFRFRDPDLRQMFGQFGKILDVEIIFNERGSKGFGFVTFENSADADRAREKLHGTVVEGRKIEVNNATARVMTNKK
CGCCAUGAAAGUUGUCUCUGUGCCAUCUCUCCGGUCCUUGAGGAGAGCCCAGAAAGAUUUUAGGACCCAGGAGGUGCUUUUCCUCCAGCUGUUGCCAGUGUCCUUCUGAG: 0.17
CUGGGACCUGCAUCUGUGCUGGGGCCAGGGACUCUCCCACGCACGAGCUAGUGAGUGGCACACCAGAGCCAUCUGCAGGGAAGGGCGUGGCGGGGAAAUGGCUGUGCGGU: 3.31
CCAGUGGGAAGAGAACCGUUCCAUCCUCUGGUGUUAACGCCUUAAUGUCCCCAGUAUUUACUAUGAGUUGCUUCAGGUCAUUUUUUGAUUUUUUGUUUUUUCUUUUGGAA: 0.745
CACCCCUCUCUCUCUCUCAACUUCAGAUGCCUCUGGCUGUUCUCAUGUCUAUAAUAAGAACCUCCCCGCAACCAUACGAAGUAUAACCAUACAUCUAUAGUUCUCCCCCG: 0.818
CCUGAGGAUCGCAAAGUAUACACAUAUGUAGCAUAAAAUGCAUUCAGAAAUUUGAUUUAUUCUUGGACUGUACUCUUCGCAUGGACUGGGAAGUUCUUUUAAAUCAUACU: 8.56

Further values, each from its own experiment
PhoQ, residues 284 288 289 292 302 303 TTSMTC — fold induction (PhoP, residues 12 14 15 18 19 FWNTL (Escherichia coli, UniProt P23836); Sort-seq, refers to: YFP reporter; E. coli; PhoQ-PhoP variant library, together with: 10 µM Mg2+; relative to: high Mg2+ state, higher = stronger signaling): 1.58

A few entries again (series 2):
GGTTGGTGTGGTTGG (2'F-ANA at 1 3 5 6 7 10 11 12 13 15): 50.9 a.u.
GGTTGGTGTGGTTGG (2'F-ANA at 2 3 4 5 10 12 14): 65.3 a.u.
